# Assay results pooled from the literature.
# Parts stem from different laboratories: compare values within a part only. Changes are numbered by the printed parent chain.

# Study 1
# Target: Sal-like protein 4, full length isoform A (SALL4, Homo sapiens, UniProt Q9UJQ4, residues 1-1053)
# UniProt Q9UJQ4, sequence (whole entry, looked up): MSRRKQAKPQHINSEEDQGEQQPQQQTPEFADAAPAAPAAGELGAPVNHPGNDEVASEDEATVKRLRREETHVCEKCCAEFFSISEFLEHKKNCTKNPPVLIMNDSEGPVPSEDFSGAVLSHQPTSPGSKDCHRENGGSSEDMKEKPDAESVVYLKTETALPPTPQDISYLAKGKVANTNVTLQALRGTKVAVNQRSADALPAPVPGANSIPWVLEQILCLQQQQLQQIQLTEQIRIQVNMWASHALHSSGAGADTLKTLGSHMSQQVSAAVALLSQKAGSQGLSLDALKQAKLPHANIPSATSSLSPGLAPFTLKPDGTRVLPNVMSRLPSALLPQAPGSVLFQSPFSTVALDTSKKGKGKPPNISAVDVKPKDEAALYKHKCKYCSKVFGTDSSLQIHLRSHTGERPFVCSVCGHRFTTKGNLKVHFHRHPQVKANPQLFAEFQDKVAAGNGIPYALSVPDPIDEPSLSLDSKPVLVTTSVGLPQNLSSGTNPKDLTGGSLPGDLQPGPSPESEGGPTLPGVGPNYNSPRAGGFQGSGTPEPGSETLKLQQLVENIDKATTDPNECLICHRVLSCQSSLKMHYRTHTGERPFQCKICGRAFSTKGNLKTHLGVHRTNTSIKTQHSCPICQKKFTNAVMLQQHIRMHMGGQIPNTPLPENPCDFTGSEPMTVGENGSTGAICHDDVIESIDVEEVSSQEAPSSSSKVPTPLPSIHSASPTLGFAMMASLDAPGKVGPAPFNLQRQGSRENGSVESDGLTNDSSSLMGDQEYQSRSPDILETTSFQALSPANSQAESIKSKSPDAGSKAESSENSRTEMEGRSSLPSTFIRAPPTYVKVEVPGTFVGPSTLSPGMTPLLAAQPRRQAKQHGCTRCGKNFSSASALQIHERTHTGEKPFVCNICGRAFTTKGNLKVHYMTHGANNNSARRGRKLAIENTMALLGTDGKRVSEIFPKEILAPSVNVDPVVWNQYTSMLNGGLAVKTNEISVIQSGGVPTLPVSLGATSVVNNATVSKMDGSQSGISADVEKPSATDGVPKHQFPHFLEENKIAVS
# Technique: universal PBM
# Form: double-stranded DNA, one strand shown
# Sample: in vitro
# Concentration: 600 nM
# Notes: 8-mer, flanks averaged, mean of replicates
# Direction: higher = stronger binding
Strand,E-score
GGACAACA,-0.0659
CCTGAGTC,-0.227
CGAATCAC,0.00323
CACAAAGA,0.0864
ACACCGGT,-0.26
AAACTAGT,0.123
ACAGCGAG,-0.0579
AGCTCACT,-0.183
CCCTTAAG,-0.0317
AGAACTAT,0.262
TCATAGGA,0.257
ATACCAGA,0.0873
ATCACCTG,-0.0327
CAATAGTC,0.0619
ACTACGCA,-0.11
CAACCACA,0.0313
AACATGAA,0.203
AACTGATG,0.131
ACACAGTG,-0.0483
AAACATGG,0.0798
AGGAAGAG,-0.0494
TCCTTAGA,-0.0609
ACGAATAC,0.155

# Study 2
# Target: CCNB1, cyclin fold, Cln2 fusion (human)
# Technique: yeast growth competition, sequencing
# Sample: yeast
# Notes: weak parent motif
# Relative to: not given
# Direction: higher = stronger binding
# Starting sequence: SCAPER docking peptide (human); SNARRSLNFGGST
Substitution,normalised enrichment score
L7S,1
G10M,0.528
R4W,0.0444
N2C,0.689
L7K,0.931
R4D,0.318
S1C,0.508
S6W,0.876
F9K,0.0171
T13W,0.666
N8G,-0.216
A3Q,-1.32
A3M,0.606
S1I,0.1
A3V,0.741
N2W,0.379
R4A,0.278
R5P,-0.0877
G11C,0.317
L7I,0.0607
S12M,-0.108
G10I,0.491
S12Q,-0.198
S1D,0.801
N2I,0.456

# Study 3
# Target: RING finger protein unkempt homolog, zinc fingers 1-6, SBP tag (UNK, Homo sapiens, UniProt Q9C0B0, residues 30-357)
# UniProt Q9C0B0, sequence (30-357, looked up): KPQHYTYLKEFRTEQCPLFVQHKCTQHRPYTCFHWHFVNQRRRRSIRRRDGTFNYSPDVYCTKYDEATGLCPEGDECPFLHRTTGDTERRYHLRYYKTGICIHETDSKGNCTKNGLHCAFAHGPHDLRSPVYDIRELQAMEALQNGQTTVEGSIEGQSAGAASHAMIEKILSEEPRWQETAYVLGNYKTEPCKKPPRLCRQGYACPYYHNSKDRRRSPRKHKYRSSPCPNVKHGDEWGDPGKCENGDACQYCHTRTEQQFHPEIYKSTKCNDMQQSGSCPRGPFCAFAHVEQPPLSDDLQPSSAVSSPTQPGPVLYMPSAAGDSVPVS
# Technique: RNA Bind-n-Seq
# Form: RNA
# Sample: in vitro
# Concentration: 100 nM
# Notes: RNA with constant flanks, vertebrate orthologous sites, ends assumed
# Relative to: input RNA pool
# Direction: higher = stronger binding
# All sequences stand within: GGGAGUUCUACAGUCCGACGAUC … CAACAGAGGAUUGAGCAUCA
Strand,bound/input enrichment [ratio]
AGAGUUGGAAGAAUAGCAUAGGAAUUUGUCAGAAAAGUUAGAGGAGCAUUUGGGGAGGGAAGUUAACAAAUAUCAAGAGCCCAAUGGAUAAGAAGUAGAGAUGAAGGUCAUUGAAACUCA,0.695
UAUUGUACGUAGAGAAAAAAUUUUCCUUGACCCCAUUGUGAAAUUCCCUAGCAAUUUAUUUAGAAUCUUCAUUUUUCUCGUUCAAGCUCACUGUAUUAGUUAUUUUUAGCCCAUAAUUAA,5.51
AAGCCCUAGUUCUUGAACCAACACCCGUAAAAGAUUUAGAAAAAAGUUUACAACAUAAUCUAGUUUACCGAAGACGCCUUGUGCUAGAAUACUUUUUAAAAAGUAUUUUUGAAUACCAUU,0.672
UCUCUCACUUAGCUGUGUCCAAAAUUGCUAUGAGGGUUGGAAACAUUGAUUAGUUUCAUGUAGAACUACACUGGCAGGUGCUCAAUUACCAUCAUAGCAAUGUCAAAUACCAUCACAGUA,1.47
CAGUUUGUAUGUACAUUAUUCACAUUCCUCUCUGAUGUGUUUGGGGGAAAAAAGACAUUUUAGCCUUUUUUAAGGUUAUUGAUUUAAUUUCAUGUUAUUUGGUUGCAUGAAGUUGCCCUU,0.45
GAAGUUAUAGAAAAGAGCCAAGCAGUAGCAUUUUCCCCCAUAAAUGGAAGUUAAAAUAAUCAGACCCUGCCUGUUUCCUUGCGCAAGUUUAAGAAUAAAAAAAUACCUCAGUGCUGUGAU,0.986
AUGCAUUUUUACAAUCUACUUAACUGGGAUUUUCAAACAAUAGGAAGCUUUUUUUUUUUUUUUACAGUUUGGUUUCUACGUGGAGGACUAAAUUAAUGCUUCUAGCUACAUGUGGUCUUU,0.932
GUGCAAGGAGAUUAUUCCAACUAGCGAAUUUAUUAACAGUAAAUUGACAGCAAAAGCAAAUAGGCAGCUUCAAGAUCCUUUAGUAAUCAUGACAGGAAACAUCCCGACAUGGCUCACUGA,0.714
AGCAUCUGGUGAUAUUUGGCCUGGUCUUUCAGCAUAUGAUAAUAGCCCAAGAUCACCUCAUAGCCCUUCUCCUAUUGCUACACCACCUAGUCAAAGUUCAUCUUGUUCAGAUGCUCCCAU,0.963
CAGGGAGAAGAGAUCACAAACUCAAAGGAAAACUAUUAAAGAGUUCUAACAGUUAAGAGCUAGGAAAGAUUAGGACAAUUUUACAAAUGAGCAGUCGAAAAGAAAAGAACAGAAAAAGAC,0.778
CUUACUUAGAGGGAAAUAUAUGUUUCAUAAGGAAGAGUCUUUAUAAUUUUGUUUGUCAGAUAGUAUUUUGGAAUUUGUAUGAGGAUGUUUAGAAGCCUUAUAAAUGGCUUUUUUUUAACA,0.764

# Study 4
# Target: Prothrombin, mature alpha-thrombin (F2, Homo sapiens, UniProt P00734)
# Technique: aptamer microarray, sandwich
# Form: DNA with 2'F-ANA
# Sample: in vitro
# Concentration: 200 nM
# Notes: whole 15-mer aptamer, many near background
# With: Cy3 exosite-II aptamer, 400 nM
# Direction: higher = stronger binding
# Strand: GGTTGGTGTGGTTGG
Modification,mean fluorescence intensity [a.u.]
2'F-ANA at 2 4 5 7 9 10 13 14,44.5
2'F-ANA at 1 2 3 7 8 9 10 11 12 13 15,79
2'F-ANA at 1 5 6 7 8 10 11 13 14 15,59.1
2'F-ANA at 2 3 5 12 14,58.8
2'F-ANA at 2 3 5 6 14 15,82.2
2'F-ANA at 2 4 5 8 9 11 15,82.6
2'F-ANA at 2 3 4 5 14,50.4
2'F-ANA at 1 2 5 6 7 8 9 11 12 13,80.6
2'F-ANA at 7 9 10 12 14,132
2'F-ANA at 3 4 5 6 8 12 14,54.1
2'F-ANA at 2 3 4 5 6 8 9 14,48.1
2'F-ANA at 2 3 4 7 10 11 12 14 15,173
2'F-ANA at 1 5 7 8 10 13 14,59
2'F-ANA at 3 5 7 10 11 13 15,80.6
2'F-ANA at 1 5 6 7 8 9 11 12,104
2'F-ANA at 1 3 6 7 8 9 10 11 15,78.6
2'F-ANA at 1 3 8 10 11 13 14 15,57.5
2'F-ANA at 1 2 3 4 7 8 10 15,60
2'F-ANA at 1 2 5 8 10 13 14,46.7

# Study 5
# Target: Histone acetyltransferase KAT6A, winged helix 2, GST fusion (KAT6A, Homo sapiens, UniProt Q92794, residues 85-181)
# Technique: protein binding microarray
# Form: double-stranded DNA, one strand shown
# Sample: in vitro
# Concentration: not given
# Notes: 8-mer, flanks averaged, mean of 2 arrays, mostly near background
# Relative to: not given
# Direction: higher = stronger binding
# Target sequence (chain): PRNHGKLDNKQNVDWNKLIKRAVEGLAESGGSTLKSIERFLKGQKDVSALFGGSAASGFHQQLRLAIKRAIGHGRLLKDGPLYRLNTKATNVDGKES
Strand,E-score
CCGTCTGC,0.126
CGAGGTTC,0.0722
CTACGATC,-0.0417
CCCACCAG,-0.0274
AGGCGCCT,0.107
ACTCTCGC,-0.0673
CTTGGGGA,0.0221
GCCCGGGA,0.265
CAGTGATC,0.0639
CCGCAACC,0.187
AGGTAAGG,-0.137
AGGCATCC,-0.178
CCATGCTA,0.0307
CGGGGAGC,0.064
GCTACAAC,-0.0063
CGGTTGAC,0.0742
CTATTTGC,-0.128
CTTCACTA,0.0294
AGCAACAG,0.0578
GAAGGTCC,0.023
CCGCCGGC,0.327
GTACCACA,0.0241
TACGATAA,-0.0509
CTATGCAG,0.229
AGTACCCA,-0.18

# Repeated from above (study 2):
Substitution,normalised enrichment score
G10I,0.491
S1I,0.1
G10M,0.528
S1D,0.801
S1C,0.508
S6W,0.876
S12M,-0.108
A3Q,-1.32
R4D,0.318
F9K,0.0171
R5P,-0.0877
R4A,0.278
G11C,0.317
T13W,0.666
N8G,-0.216
